# Measured values gathered from unrelated publications.
# A part holds a random share of what one study measured.

# Series 1
# Cell line: HEK-293T/ACE2
# Concentration: concentration not given
# Time: 16 (unit not given)
# Relative to: vehicle
Structure (SMILES),viability
O=P(O)(O)C(O)(Cn1ccnc1)P(=O)(O)O,94.3%
CC1=C(/C=C/C(C)=C/C=C/C(C)=C/C=C/C=C(C)/C=C/C=C(C)/C=C/C2=C(C)CCCC2(C)C)C(C)(C)CCC1,102%
CC=CC(=O)N(CC)c1ccccc1C (mixture of isomers),101%
CC(=O)[C@H]1CC[C@H]2[C@@H]3CCC4=CC(=O)CC[C@]4(C)[C@H]3CC[C@]12C,103%

# Series 2
# Target: TAR DNA-binding protein 43, full length, His tag (TARDBP, Homo sapiens, UniProt Q13148, residues 1-414)
# Method: RNA Bind-n-Seq
# Form: RNA
# Matrix: in vitro
# Concentration: 20 nM
# Notes: 6-mer, flanks averaged, single round
# Together with: 150 mM LiCl
# Relative to: input library
# Reading: higher = stronger binding
Sequence,6-mer enrichment (R)
UGUAAG,1.12
GUUGAG,1.27
AGUUAU,0.984
AACAAG,0.889
AUGAUU,0.943
CUGGUU,0.99
CAUGUC,0.9
GCACGA,0.886

# Series 3
# Target: Replicase polyprotein 1ab, polymerase (rep, Severe acute respiratory syndrome coronavirus 2, UniProt P0DTD1)
# Read-out: enzyme activity
# Action: inhibitor
# Concentration: 20 µM
Compound,inhibition
CN(C)CCc1c[nH]c2ccc(C[C@H]3COC(=O)N3)cc12,-19.4%
CC(=O)NCCc1c(Cc2ccccc2)[nH]c2ccccc12,-11.9%
Cc1cc(/C=c2/sc3nc4ccccc4n3c2=O)c(C)n1-c1ccccc1,-0.81%
Cc1oc(=O)oc1CN1CCN(c2cc3c(cc2F)c(=O)c(C(=O)O)c2n3C(C)S2)CC1 (stereo not shown),4.06%
C=CC(=O)Nc1cccc(Nc2nc(Nc3ccc(NC4CN(CCF)C4)cc3OC)ncc2C(F)(F)F)c1,1.69%
OC(Cc1ccncc1)C(Cl)(Cl)Cl (stereo not shown),5%
O=C(NO)c1cnc(N2CCN(S(=O)(=O)c3ccc4ccccc4c3)CC2)nc1,1.65%
CO[C@@H]1[C@@H](O[C@@H]2O[C@H](C)[C@@H](O[C@H]3C[C@@](C)(O)[C@@H](OC(=O)CC(C)C)[C@H](C)O3)[C@H](N(C)C)[C@H]2O)[C@@H](CC=O)C[C@@H](C)[C@@H](O)/C=C/C=C/C[C@@H](C)OC(=O)C[C@H]1OC(C)=O,0.64%
Cc1nnc(SCC2=C(C(=O)O)N3C(=O)[C@@H](NC(=O)Cn4cnnn4)[C@H]3SC2)s1,3.01%
CC(C)(C)c1cc(C=C(C#N)C#N)cc(C(C)(C)C)c1O,-1.23%
CS(=O)(=O)c1ccc(-c2nnc(/C=C/c3nnc(-c4ccc(C#N)cc4)o3)n2-c2ccccc2Cl)nc1,-1.75%
C[C@H](N)C(=O)NCC(=O)N[C@H]1CSSC[C@@H](C(=O)O)NC(=O)[C@H](CO)NC(=O)[C@H]([C@@H](C)O)NC(=O)[C@H](Cc2ccccc2)NC(=O)[C@H]([C@@H](C)O)NC(=O)[C@H](CCCCN)NC(=O)[C@H](Cc2c[nH]c3ccccc23)NC(=O)[C@H](Cc2ccccc2)NC(=O)[C@H](Cc2ccccc2)NC(=O)[C@H](CC(N)=O)NC(=O)[C@H](CCCCN)NC1=O,5.76%
CCCC(=O)C1(c2ccccc2)CCN(C(=O)[C@@H](Cc2ccc(OC)cc2)NC(=O)[C@@H](N)Cc2cncn2C)CC1,0.97%
CNC(=O)c1cnn(-c2nc(N)c3ncn([C@@H]4O[C@H](CO)[C@@H](O)[C@H]4O)c3n2)c1,2.85%
CN(C[C@@H]1COCCO1)S(=O)(=O)Nc1ccc2ccc3ncc(-c4cnn(C)c4)cc3c(=O)c2c1,44.6%
Cc1nccn1CCC(C(N)=O)(c1ccccc1)c1ccccc1,-21.1%
Cc1nc(C#Cc2ccnc(Cl)c2)c(C)n1-c1ccc(F)cc1,0.72%
CCn1cc(-c2ccnc3[nH]c(-c4cccc(CN(C)C)c4)cc23)c(-c2ccc(NC(=O)N(C)C)cc2)n1,4.76%
Nc1ccc(S(=O)(=O)c2ccc(N)cc2)cc1,-1.02%

# Series 4
# Target: Sal-like protein 4, full length isoform B (SALL4, Homo sapiens, UniProt Q9UJQ4-2, residues 1-616)
# Method: universal PBM
# Form: double-stranded DNA, one strand shown
# Matrix: in vitro
# Concentration: not given
# Notes: 8-mer, flanks averaged, mean of replicates
# Reading: higher = stronger binding
Sequence,E-score
AGCACCGG,-0.283
GTACTGTA,0.0934
GAACGCGC,-0.224
CTAGATAC,0.168
AGTTTTGA,0.0721
GCCGCGAC,-0.332
TCGTGAAA,-0.0318
ACCGGGAT,-0.269

# Series 5
# Target: Replicase polyprotein 1ab, main protease (rep, Severe acute respiratory syndrome coronavirus 2, UniProt P0DTD1)
# Read-out: enzyme activity
# Action: inhibitor
# Notes: with DTT
SMILES,IC50
O=C(O)[C@@H](S)[C@@H](S)C(=O)O,80 nM
C[n+]1c2cc(N)ccc2cc2ccc(N)cc21.Nc1ccc2cc3ccc(N)cc3nc2c1,> 20000 nM
O=c1c(O)cccc2cc(O)c(O)c(O)c12,> 20000 nM
O=C(CCl)c1ccccc1,240 nM

# A few entries again (series 1):
Structure (SMILES),viability
O=P(O)(O)C(O)(Cn1ccnc1)P(=O)(O)O,94.3%
CC1=C(/C=C/C(C)=C/C=C/C(C)=C/C=C/C=C(C)/C=C/C=C(C)/C=C/C2=C(C)CCCC2(C)C)C(C)(C)CCC1,102%
CC=CC(=O)N(CC)c1ccccc1C (mixture of isomers),101%
CC(=O)[C@H]1CC[C@H]2[C@@H]3CCC4=CC(=O)CC[C@]4(C)[C@H]3CC[C@]12C,103%
